Published values gathered from unrelated publications.
Lines come from different studies, so protocols differ. Several values in a cell are separate wells, animals, samples, runs or records. Numbers after ± are the reported error.
T1: G-quadruplex DNA, parallel G-quadruplex (Homo sapiens); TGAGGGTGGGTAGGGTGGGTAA
Chain of UniProt P35821 (whole entry, looked up): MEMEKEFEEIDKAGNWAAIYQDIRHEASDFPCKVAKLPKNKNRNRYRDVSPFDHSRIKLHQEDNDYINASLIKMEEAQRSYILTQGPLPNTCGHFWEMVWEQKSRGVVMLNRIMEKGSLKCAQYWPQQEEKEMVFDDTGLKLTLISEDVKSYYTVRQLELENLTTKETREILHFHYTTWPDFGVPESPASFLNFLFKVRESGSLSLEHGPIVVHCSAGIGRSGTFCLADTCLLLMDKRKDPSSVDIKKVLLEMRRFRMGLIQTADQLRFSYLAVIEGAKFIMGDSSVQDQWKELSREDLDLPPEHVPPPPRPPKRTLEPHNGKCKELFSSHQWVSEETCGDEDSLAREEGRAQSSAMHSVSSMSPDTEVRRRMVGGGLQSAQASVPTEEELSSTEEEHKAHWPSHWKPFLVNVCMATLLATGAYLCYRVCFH
Chain of UniProt Q00987 (whole entry, unmodified, looked up): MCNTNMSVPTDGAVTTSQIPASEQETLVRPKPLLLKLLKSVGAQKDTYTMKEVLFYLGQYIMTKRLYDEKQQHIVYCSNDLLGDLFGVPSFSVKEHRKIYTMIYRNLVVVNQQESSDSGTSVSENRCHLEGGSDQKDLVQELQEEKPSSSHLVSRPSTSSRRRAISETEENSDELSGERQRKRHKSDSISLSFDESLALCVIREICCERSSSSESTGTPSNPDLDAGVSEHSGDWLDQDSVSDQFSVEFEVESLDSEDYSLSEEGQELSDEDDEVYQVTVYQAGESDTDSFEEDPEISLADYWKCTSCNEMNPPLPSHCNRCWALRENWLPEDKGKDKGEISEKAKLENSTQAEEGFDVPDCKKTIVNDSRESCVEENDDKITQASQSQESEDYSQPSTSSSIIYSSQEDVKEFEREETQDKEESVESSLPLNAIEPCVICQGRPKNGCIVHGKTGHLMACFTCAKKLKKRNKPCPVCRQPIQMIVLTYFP
Chain of UniProt P55210 (whole entry, looked up): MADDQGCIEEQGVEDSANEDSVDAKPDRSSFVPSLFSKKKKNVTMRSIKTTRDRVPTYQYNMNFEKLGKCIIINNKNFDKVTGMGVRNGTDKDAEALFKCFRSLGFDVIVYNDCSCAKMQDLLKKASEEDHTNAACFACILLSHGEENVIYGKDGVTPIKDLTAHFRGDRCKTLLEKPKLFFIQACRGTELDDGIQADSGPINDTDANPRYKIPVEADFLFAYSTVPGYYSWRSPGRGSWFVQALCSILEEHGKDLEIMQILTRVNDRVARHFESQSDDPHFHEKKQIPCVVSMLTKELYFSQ
Chain of UniProt P19491 (whole entry, looked up): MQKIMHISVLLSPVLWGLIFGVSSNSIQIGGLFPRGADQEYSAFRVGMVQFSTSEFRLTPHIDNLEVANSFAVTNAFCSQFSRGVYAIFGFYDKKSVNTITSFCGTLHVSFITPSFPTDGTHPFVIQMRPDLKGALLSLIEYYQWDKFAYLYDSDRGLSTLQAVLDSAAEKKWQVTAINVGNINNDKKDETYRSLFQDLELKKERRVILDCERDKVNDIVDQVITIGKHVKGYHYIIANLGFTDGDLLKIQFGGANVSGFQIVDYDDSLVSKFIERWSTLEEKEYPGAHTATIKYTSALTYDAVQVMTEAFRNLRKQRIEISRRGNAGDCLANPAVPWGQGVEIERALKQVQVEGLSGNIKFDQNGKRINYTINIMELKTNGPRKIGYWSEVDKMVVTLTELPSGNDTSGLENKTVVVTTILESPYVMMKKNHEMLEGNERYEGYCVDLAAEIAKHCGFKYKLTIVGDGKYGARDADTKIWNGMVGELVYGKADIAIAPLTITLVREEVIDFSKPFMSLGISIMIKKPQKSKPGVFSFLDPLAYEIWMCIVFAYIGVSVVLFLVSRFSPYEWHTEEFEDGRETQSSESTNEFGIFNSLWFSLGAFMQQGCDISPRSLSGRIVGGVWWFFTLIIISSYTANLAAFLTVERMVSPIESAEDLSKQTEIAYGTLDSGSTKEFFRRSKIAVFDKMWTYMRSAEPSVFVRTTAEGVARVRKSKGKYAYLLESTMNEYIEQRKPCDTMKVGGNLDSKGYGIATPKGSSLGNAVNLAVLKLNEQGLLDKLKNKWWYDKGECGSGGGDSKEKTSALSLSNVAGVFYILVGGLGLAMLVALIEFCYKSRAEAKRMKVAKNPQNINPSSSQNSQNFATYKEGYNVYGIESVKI
Chain of UniProt P34972 (whole entry, looked up): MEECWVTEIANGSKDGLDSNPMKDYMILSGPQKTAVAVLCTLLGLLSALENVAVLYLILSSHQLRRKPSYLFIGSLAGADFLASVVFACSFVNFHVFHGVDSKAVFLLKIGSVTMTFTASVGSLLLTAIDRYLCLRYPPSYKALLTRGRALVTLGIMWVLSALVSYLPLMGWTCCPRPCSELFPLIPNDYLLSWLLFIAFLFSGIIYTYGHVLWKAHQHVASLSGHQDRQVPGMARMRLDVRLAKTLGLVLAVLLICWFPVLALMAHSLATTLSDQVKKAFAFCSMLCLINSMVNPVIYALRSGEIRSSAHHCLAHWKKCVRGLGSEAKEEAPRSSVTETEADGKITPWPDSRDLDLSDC
Chain of UniProt P49327 (whole entry, looked up): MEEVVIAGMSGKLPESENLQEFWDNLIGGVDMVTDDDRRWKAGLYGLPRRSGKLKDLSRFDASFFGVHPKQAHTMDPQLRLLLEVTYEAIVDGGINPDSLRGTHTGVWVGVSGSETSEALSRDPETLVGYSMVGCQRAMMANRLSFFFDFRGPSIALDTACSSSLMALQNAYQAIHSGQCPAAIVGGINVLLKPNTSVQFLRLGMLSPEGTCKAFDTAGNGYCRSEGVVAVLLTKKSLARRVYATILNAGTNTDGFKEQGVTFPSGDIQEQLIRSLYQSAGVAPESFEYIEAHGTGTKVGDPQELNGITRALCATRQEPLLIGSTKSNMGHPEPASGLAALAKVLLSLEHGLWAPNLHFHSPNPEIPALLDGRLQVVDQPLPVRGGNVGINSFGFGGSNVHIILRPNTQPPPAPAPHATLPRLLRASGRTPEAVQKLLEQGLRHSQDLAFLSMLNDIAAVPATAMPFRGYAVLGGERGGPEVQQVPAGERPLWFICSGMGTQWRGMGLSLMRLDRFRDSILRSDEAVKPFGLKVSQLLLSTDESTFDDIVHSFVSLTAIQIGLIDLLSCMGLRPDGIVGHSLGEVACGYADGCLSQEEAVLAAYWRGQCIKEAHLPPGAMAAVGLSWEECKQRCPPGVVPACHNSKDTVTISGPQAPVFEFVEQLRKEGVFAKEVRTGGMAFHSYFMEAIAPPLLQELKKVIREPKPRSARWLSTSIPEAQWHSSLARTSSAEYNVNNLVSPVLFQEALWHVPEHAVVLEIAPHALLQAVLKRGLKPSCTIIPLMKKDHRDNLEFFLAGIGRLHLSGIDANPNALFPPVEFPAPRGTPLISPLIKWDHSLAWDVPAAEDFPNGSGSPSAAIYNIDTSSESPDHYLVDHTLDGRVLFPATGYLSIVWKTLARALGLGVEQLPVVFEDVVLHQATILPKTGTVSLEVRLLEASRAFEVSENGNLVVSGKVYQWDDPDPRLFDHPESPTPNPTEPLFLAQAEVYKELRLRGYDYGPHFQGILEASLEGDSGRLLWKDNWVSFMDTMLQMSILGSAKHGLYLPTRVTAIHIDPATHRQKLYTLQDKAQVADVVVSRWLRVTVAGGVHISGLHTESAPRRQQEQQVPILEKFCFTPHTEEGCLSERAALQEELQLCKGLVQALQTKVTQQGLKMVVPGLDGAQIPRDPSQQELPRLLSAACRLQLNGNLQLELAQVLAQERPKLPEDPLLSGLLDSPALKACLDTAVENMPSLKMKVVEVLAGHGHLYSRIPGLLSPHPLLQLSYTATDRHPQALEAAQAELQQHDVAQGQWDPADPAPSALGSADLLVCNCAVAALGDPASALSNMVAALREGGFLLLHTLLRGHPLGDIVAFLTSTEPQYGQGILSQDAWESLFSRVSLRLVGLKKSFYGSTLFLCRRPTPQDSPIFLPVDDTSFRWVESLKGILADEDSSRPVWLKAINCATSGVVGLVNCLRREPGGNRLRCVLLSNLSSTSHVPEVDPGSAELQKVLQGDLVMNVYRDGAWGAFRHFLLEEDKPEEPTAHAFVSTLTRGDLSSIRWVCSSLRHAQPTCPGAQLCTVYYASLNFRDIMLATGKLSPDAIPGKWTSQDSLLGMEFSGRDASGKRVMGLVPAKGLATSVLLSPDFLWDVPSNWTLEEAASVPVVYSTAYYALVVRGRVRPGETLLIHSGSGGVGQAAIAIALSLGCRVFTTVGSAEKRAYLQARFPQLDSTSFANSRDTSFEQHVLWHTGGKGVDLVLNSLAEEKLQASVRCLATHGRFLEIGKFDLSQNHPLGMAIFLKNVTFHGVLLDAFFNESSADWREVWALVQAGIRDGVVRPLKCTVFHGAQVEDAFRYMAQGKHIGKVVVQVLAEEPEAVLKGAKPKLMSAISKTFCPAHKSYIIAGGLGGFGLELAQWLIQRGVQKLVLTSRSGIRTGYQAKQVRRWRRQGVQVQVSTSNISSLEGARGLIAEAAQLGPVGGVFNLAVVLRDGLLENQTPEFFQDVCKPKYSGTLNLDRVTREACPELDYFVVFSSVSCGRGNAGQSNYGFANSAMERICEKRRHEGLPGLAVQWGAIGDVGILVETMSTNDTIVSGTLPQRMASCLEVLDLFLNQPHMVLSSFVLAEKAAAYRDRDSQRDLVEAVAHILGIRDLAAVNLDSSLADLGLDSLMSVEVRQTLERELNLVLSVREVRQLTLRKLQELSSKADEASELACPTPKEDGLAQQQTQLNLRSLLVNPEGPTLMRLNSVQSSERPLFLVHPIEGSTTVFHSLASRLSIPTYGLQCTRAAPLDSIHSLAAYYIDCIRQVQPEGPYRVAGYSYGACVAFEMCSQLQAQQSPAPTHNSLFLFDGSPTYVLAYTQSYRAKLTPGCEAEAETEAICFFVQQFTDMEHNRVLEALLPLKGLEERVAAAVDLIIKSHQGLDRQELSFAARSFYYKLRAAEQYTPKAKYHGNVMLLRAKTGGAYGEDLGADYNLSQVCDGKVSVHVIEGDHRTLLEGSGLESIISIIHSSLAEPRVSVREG

CCCCCCCCCCCCC/C=C/C=O  isoTOP-ABPP competition ratio (Fatty acid synthase (FASN, Homo sapiens, UniProt P49327); competitive isoTOP-ABPP; Ramos soluble proteome; 100 µM, with: iodoacetamide probe; baseline: DMSO over compound-treated, higher = stronger cysteine blockade): 1
CC(C)[C@@H]1NC(=O)[C@H](Cc2ccccc2)NC(=O)CSC[C@@H](C(N)=O)NC(=O)[C@H](CCC(=O)O)NC(=O)[C@H](CO)NC(=O)[C@H](Cc2c[nH]c3cccc(Cl)c23)NC(=O)[C@H](C2CCCCC2)NC(=O)[C@H](C(C)C)NC(=O)[C@H](Cc2ccc(O)cc2)NC(=O)[C@H](CC(=O)O)NC(=O)[C@H](Cc2c[nH]c3ccccc23)NC(=O)[C@H](Cc2ccc(N)nc2)NC(=O)[C@H](Cc2c[nH]c3ccc(Cl)cc23)NC(=O)[C@H](CCC(=O)O)NC1=O  remaining activity (Interleukin-1 receptor-like 2 (IL1RL2, Homo sapiens, UniProt Q9HB29); reporter gene (SEAP), inhibitor, HEK-Blue IL-36R reporter; HEK-Blue IL-36R cells; 3.7 µM, 6 h, with: IL-36β 0.1 ng/mL): 7.6%
OCC1OC(n2cc(-c3ccc(F)cc3F)nn2)C(O)C(O)C1O (centres unmarked)  ΔTm (MDM2 (Homo sapiens, UniProt Q00987); thermal stability, DSF; 30 µM): 2.44 °C
CN(C)c1ccc2c(c1)C(=O)N(c1ccc(S(N)(=O)=O)cc1)C2=O  emission maximum (CA2 (Bos taurus, UniProt P00921); binding): 533 nm
Cc1cnc2nc1Nc1cccc(c1)COC/C=C/COCc1cc(ccc1OCCN1CCOCC1)N2  remaining binding (Tyrosine-protein kinase ABL1, non-phosphorylated (ABL1, Homo sapiens, UniProt P00519); binding; 0.1 µM): 58%
O=C1c2sc(-c3ccc(N4CCC(CO)CC4)nc3F)nc2CCN1c1cccnc1  specific binding (TAR DNA-binding protein 43, aggregated (TARDBP, Homo sapiens, UniProt Q13148); radioligand binding; human, FTLD-TDP type B sarkosyl-insoluble extract; 1.29 nM): 0.136 nM
CC(=O)N[C@@H](CC(=O)O)C(=O)N[C@@H](Cc1ccc2ccccc2c1)C(=O)N[C@@H](C)C(=O)N[C@@H](CC(=O)O)C(=O)COC(=O)c1c(C)cccc1C  kinact/KI (Caspase-7 (CASP7, Homo sapiens, UniProt P55210); enzyme activity, inhibitor): 197000 M⁻¹ s⁻¹
Cc1ccc(-c2c[nH]nc2C(=O)NC2CC2)cc1  number of kinases hit (human kinase panel; binding, KINOMEscan; 10000 nM, %Ctrl below 35): 1
COc1cc(Nc2nccc(-c3cnn4nc(OC)ccc34)n2)cc(C(F)(F)F)c1  remaining binding (Tyrosine-protein kinase ABL1, non-phosphorylated (ABL1, Homo sapiens, UniProt P00519, T315I); binding; 1 µM): 98%
CN(C)c1ccc(/C=C/C=C/c2cc(-c3ccc(N(C)C)cc3)[o+]c3ccccc23)cc1  binding (T1, G-quadruplex DNA, parallel G-quadruplex (Homo sapiens); fluorescence turn-on; absorption red shift): binds
Cn1c(=O)n(C2CCC(=O)NC2=O)c2ccc(C3CCN(CC(=O)Nc4cccc(CS(=O)(=O)N5CC[C@H](Nc6cccc(-c7sc(C(=O)O)c(OCC(=O)O)c7Cl)c6)CC5(C)C)c4)CC3)cc21 (some centres unmarked)  remaining protein (Tyrosine-protein phosphatase non-receptor type 1 (Mus musculus, UniProt P35821); degrader, Western blot; B16-F10; 0.001 µM): 78.7% and 84.7%
Fc1ccc(Nc2nc(NC3CCCCC3)c3cc(C(F)(F)F)ccc3n2)cc1F  maximal inhibition (ADRB2 (Homo sapiens, UniProt P07550, I153L); β-arrestin2 recruitment, antagonist, BRET; mutant I153L; baseline: isoprenaline maximal response): -2.4%
CCOC(=O)[C@](CC)(CCCSCCOCCOCCN)NC(=O)c1ccc(C2CC2)c(Cc2ccc(F)cc2)n1  Ki ratio (CNR2 (Homo sapiens, UniProt P34972); radioligand binding; baseline: CB1 over CB2 (human)): 23
COC(=O)Cc1cc2c(cc1C(=O)c1ccccc1I)OCO2  current amplitude (Gria2 (Rattus norvegicus, UniProt P19491); glutamate-evoked current, whole-cell patch clamp; HEK-293T; concentration not given, pH 7.4, holding potential -60 mV, with: 10 mM glutamate): 851 ± 71 pA

A few entries again:
CCCCCCCCCCCCC/C=C/C=O  isoTOP-ABPP competition ratio (Fatty acid synthase (FASN, Homo sapiens, UniProt P49327); competitive isoTOP-ABPP; Ramos soluble proteome; 100 µM, with: iodoacetamide probe; baseline: DMSO over compound-treated, higher = stronger cysteine blockade): 1
CN(C)c1ccc(/C=C/C=C/c2cc(-c3ccc(N(C)C)cc3)[o+]c3ccccc23)cc1  binding (T1, G-quadruplex DNA, parallel G-quadruplex (Homo sapiens); fluorescence turn-on; absorption red shift): binds
